# Measurements of several laboratories.
# Numbered parts are unrelated; each lists some results of a single study.

# Block 1
# Target: Sal-like protein 4, full length isoform B (SALL4, Homo sapiens, UniProt Q9UJQ4-2, residues 1-616)
# Technique: universal PBM
# Form: double-stranded DNA, one strand shown
# Medium: in vitro
# Concentration: not given
# Notes: 8-mer, flanks averaged, mean of replicates
# Direction: higher = stronger binding
Oligonucleotide,E-score
CGCGCCTC,-0.34
ACGCCAAT,0.109
AGAGTTAA,0.0884
CAGGGAAC,-0.0825
GCATGAGA,-0.00563
GCAGTCAC,-0.12
GCCTGTGA,-0.169
CCTAAGGC,-0.294
TAACCTAA,0.185
AAGCCCCT,-0.158
ATAGAGGG,0.118
GATCCTCC,-0.204
ACGCTTAT,0.08
CGATTCCG,-0.135
ACCTTTAT,0.179
ATAGTGCA,0.212
ATGTCAGA,0.137
AAGCTACT,2e-05

# Block 2
# Target: RNA binding protein fox-1 homolog 2, RRM domain, GST-SBP tag (RBFOX2, Homo sapiens, UniProt O43251-10, residues 100-194)
# Technique: RNA Bind-n-Seq
# Form: RNA
# Medium: in vitro
# Concentration: 365 nM
# Notes: natural RNA segment, single round, ends assumed
# Relative to: no-protein control
# Direction: higher = stronger binding
# Constant ends, left off below: GGGAGUUCUACAGUCCGACGAUC … UGGAAUUCUCGGGUGCCAA
# Target sequence (chain): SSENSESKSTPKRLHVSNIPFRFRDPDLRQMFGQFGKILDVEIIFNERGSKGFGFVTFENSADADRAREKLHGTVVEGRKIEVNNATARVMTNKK
Oligonucleotide,RBNS enrichment (R)
UUAUUGUAUAGAGCUGCUUCAAUUCUGAGUCCUCUGGACUUCCCCUGCCUAUCUGUUUGUUGUUGUUGUUGAAGACAGUAAAAUAAGUGUUUUCAAAUCUAUAUGUCUCC,3.26
CUUGUAUUUAUUUCAAGGAAACCAAUGAAUUCUAGGUAGUAUAUUACAAGUUGGUCAAAAUAUUCCAUGUACAAAUAGGGCUUCUGUGUCCAUAGCCUUGUAAGAGAUAC,0.616
GAAGAUUCAGUGAAGGUUGAAGAAUAGAAUGUCUGCUGAAUGUGCAAGCCCUACCUAAGGAACGGCUCUUGGAAGACUUCAUAAUGAUGCUGUCUCUGGCUGGGCCUUGG,0.653
GACCUAGCCAACAACAGCACCUCAAUCUGAUACACUCCCGAUGCCACAUUUUUAACUCCUCUCGCUCUGAUGGGACAUUUGUUACCCUUUUUUCAUAGUGAAAUUGUGUU,0.859
AUGUAGAAAAUGUGACAUCUGGAUAUAAAAUGAAAAUAAAUGUUAAAUUAAAUGGACCUUAACUAAAGUGACUCUCUAUCUUCUAACGAGGAAAGCAACAAGCAAAUAUG,0.494
GGUAGCUUUUUUUUACCACACUACAGGACAUUACCUGUAGGCCCAGAAGACUACAGGCUGGUGUCCCUAGAGGGCCCAAUACAGUCAAUUCCAACCUCUAAGUCGGGGAA,0.196
CAAAUGUUCUUAAAGACUUUUUGCUAUGUAGUAUCUACCUUGUAGAAACCUUGCAGAUUGCAGAGUUGAGAUGUGUUUUAUCUUUGUUUUAUAUUAAAAAGAUCUGUGGG,0.537
GCUACAGAAAGCAGGACUAGGAACUGGAAAUAACUUUGGGUCCUGCCUUCAUUAGGACGUUCUUUUUAGAAGCAGUUCUUCCAGCUCUGGAUCAUAGAGUGACCUUUAAU,0.208
UGGGAGCUCUGCUCAUGACCGCUCACAGGGUACCGAGUCUUUGCCUUUUGUGUGUGCGCAUGCUGCCCUCUUAACUGCUUUUAGUAUUCAGAAAGGUUCCAUUUAUGUUU,3.92
AAGAAAAAUGGAAGGUAAGUUGAGUUGCUCCUUUCCCAGUUCCUAGGAAUAGGCAAGAAGCCAGUCUCCCCAGGUUGGAAGAGGAUCAUGGGCCUGGCCUAGCUCCUCCG,0.253
GCUGACUGUGUGACUGCCCUGCUCCCUCUGUUCAUCUUAGCCCCAGCCCUCGUCCUCUUUCUGUGAUCCGAUUGAGGAUUUUUUCCUCCUUCAAGUUAAUUUAAACAACU,0.435
AGACUGCUCCAGCUGGGACAUCCAGUCCUCGCUGCUGUUGCUGCUAGUUCGAAGGAUGCCGCCGUGCUGUCUGUGGCCGCCCUCCCAUGUCCUGUCCCCUGUAGCUGCUU,0.427

# Block 3
# Target: RING finger protein unkempt homolog, zinc fingers 1-6, GST-SBP tag (UNK, Homo sapiens, UniProt Q9C0B0, residues 30-357)
# Technique: RNA Bind-n-Seq
# Form: RNA
# Medium: in vitro
# Concentration: not given
# Notes: RNA with constant flanks, human-mouse chimeric sites, ends assumed
# Relative to: input RNA pool
# Direction: higher = stronger binding
# Constant ends, left off below: GGGAGUUCUACAGUCCGACGAUC … CAACAGAGGAUUGAGCAUCA
# Residues (chain): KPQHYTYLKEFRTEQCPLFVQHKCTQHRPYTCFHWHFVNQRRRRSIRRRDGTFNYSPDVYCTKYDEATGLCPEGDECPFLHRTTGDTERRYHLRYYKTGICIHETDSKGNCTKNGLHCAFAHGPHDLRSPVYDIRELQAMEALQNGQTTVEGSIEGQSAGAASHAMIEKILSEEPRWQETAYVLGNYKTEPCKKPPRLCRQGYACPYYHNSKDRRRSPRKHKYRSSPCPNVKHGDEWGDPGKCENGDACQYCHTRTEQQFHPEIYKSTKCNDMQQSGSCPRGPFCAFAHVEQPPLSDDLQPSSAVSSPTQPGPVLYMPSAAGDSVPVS
Oligonucleotide,bound/input enrichment
AGUGUGCAGGAAUUCAUGACCUUUACAAGUCAACUGAUUGUGGAACGCUCGGGGAAAGGCACUAGAGCUUCUGUCAAAGAACAAGAGUAUCUUUGCCACGUCUACGUCCGGAGCGACAGU,0.0941 ratio
AACAGAUUGUCUUUAAGCAUUCCAAGCGAGAAUGCUGGGGUGAUCAUUGUUGCCCAUGUGCCUUCUGACUGAGCUUUAAUGCUGUUCAUCCUUGAUGCUUUCCUUCAUUGCAUAUUUGUU,0.165 ratio
GCUCCUCCCCGCUCUGCAGCCUGGGGACACUGGGCUGGGACCAGAAUCCAGCUUUCUUUUAAAACUCUCAGUGUAACUUCUUUUUCUGACAUUUCAUUUUUUUUAAAUAGUGUAUUUUUU,4.24 ratio
GUACUGCAACAGCAGGGAAAACUGCAGGAAGCUCUGAUGCAUUAUAAGGAGGCUAUUCGAAUUAGUCCUACCUUUGCUGAUGCCUACUCUAAUAUGGGAAACACUCUAAAGGAGAUGCAG,0.205 ratio
AGAAUCUUGGGACUGUUUUACUUAAUUGGUCAUUGAUAUCUCAACAAACAUGGAGAUAAGAUUAGAAAUCUUGACAUCAACAGGUAUUAAGCAGAAAAAACCAUGGCCCAGAGUAUCCUG,0.111 ratio
GCUCUUGGGAAUGUAAUCAGCGCCUUGGGGGACAAGAGCAAGAGAGCCACCCAUGUCCCUUACAGAGACUCUAAGCUAACAAGACUAUUGCAGGAUUCCCUUGGGGGUAACAGCCAAACC,0.205 ratio
UAAGUCCUGUGCCAGCACUUCGCUCAUUAUAUUUUAAAUUCUGGACCAAUAGUGUUUGUUUCCUGAUUAUUGUAUCCAAUACUUUGCGUACUAUGUGACUCACUCUUACUGAUAAUAAAA,1.41 ratio
AAAGAUCUACUGAGGCAAGGCAGCAAAUUUAGGAGAGACAUUUCAACAAUAUUGAUAGAGUUAGGAUUCCAAAUUAAAAAGAAAACUAAGACAUUAUACAUCAACAAAGCCAAUGUGUGG,6.37 ratio
GUGACUGGUGUUAAGAUUUCCCCUCAGCAAAGAAGUGCAGUAGUCACCAUAAUUCCAUCUAUAGUGAGUGCCAGUCAGAUUGUGGAGCUGGUCCCAGAACUCAGUUUAGACAUGGGAACU,2.17 ratio
CGGAGCCCUCCUCUCCCACAGGCCCAAGAUAUAACCCACCAGUGCCUUUUGUCUUCCUGUCAGCUCUGUCAAUCACGGCCCUGCCUUCACGCCCACACUCCCCAGCCAAAGUGGGGAGGG,0.447 ratio
UUACCCGAGAACGAGGAUGAGCUGGAGAGCACCAACAGGCGCUACACCAAGAGAGACUGCAGCACUUUCCUCAGAACUAGUGAGACGGGCAUCGUGGACCAGGUCAUGGUCACUCUCAAC,0.145 ratio

# Block 4
# Target: Ras GTPase-activating protein-binding protein 1, full length (G3BP1, Homo sapiens, UniProt Q13283)
# Chain of UniProt Q13283 (whole entry, looked up): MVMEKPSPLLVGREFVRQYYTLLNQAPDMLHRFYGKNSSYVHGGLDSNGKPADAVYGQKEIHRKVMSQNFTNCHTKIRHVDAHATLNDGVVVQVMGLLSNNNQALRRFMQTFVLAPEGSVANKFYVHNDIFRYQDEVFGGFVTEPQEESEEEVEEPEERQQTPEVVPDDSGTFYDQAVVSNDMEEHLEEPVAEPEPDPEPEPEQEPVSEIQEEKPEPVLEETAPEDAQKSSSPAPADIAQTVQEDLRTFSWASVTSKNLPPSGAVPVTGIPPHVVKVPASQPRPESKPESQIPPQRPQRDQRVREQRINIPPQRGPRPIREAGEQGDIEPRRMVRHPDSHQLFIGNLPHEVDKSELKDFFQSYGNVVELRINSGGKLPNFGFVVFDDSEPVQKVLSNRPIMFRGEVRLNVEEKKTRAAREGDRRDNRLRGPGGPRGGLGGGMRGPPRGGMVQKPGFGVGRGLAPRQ
# Technique: RNA Bind-n-Seq
# Form: RNA
# Medium: in vitro
# Concentration: 200 nM
# Notes: whole 134-nt RNA, ends assumed
# Together with: 150 mM KCl
# Relative to: input library
# Direction: higher = stronger binding
# Constant ends, left off below: GGGAGUUCUACAGUCCGACGAUC … UGGAAUUCUCGGGUGUCAAGG
Oligonucleotide,log2 enrichment
GUCCUGUGCUACACAUCGUAUGUACCGAAUCGGGGUGGGGAAAGGGGUUUUUUUGGGGAAAGUAUUAUGUUACGCCGUUCGGAUCUGCAC,0.547
UCCUGUGCUACACAUCGUAUGUACCGAAUCGGGAAAAAGGGAAAAAGGGAAAAAAAGGGAAAGUAUUAUGUUACGCCGUUCGGAUCUGCA,-0.288
CAAGUCCUGUGCUACACAUCGUAUGUACCGAAUCGGAAAAAGGAAAAAGGAAAGGAAAGUAUUAUGUUACGCCGUUCGGAUCUGCACUUC,-1.17
AAGUCCUGUGCUACACAUCGUAUGUACCGAAUCGGCCCCGGGCCCCGGGGCCCCGGGAAAGUAUUAUGUUACGCCGUUCGGAUCUGCACU,-1.13
GUCCUGUGCUACACAUCGUAUGUACCGAAUCAAAUUUAAACCCCCAAAUUUUUUUAAAAAAGUAUUAUGUUACGCCGUUCGGAUCUGCAC,0.0629
GUCCUGUGCUACACAUCGUAUGUACCGAAUCGGAAAAAAAGGAAAAAGGUUUUUUUGGAAAGUAUUAUGUUACGCCGUUCGGAUCUGCAC,-1.47
UUCCGCCUCUUUCCGGAGUACAAGAACAACAAACUUUUCCUGACCGGGGAGAGCUAUGCUGGCAUCUACAUCCCCACCCUGGCCGUGCUG,0.8
UAACUUUAGAGGAGGAUCUGAUGGAUAUGGCAGUGGACGUGGAUUUGGGGAUGGCUAUAAUGGGUAUGGAGGAGGACCUAGAGGUGGCAA,0.0131
GCAGGAAGUAAAAACAAAAAAAAAUGCUUCGGAUAGUGGCAGGGGUGGGGGUUGCUAAGGAAAGGGUGGGAUGGGAGUGGGUAAAGAGUU,1.12
CACAGACAACACGCACCUACACAGACACAGAGGGAAGGGGUUGGGAUGGGGACAGGGUGCACAGCAGGGCGGGGUAGGACCCCAGCCCCU,1.79
CAAGUCCUGUGCUACACAUCGUAUGUACCGAAUCGGGGAAAGGGGAGGGGAGGGGAAAGUAUUAUGUUACGCCGUUCGGAUCUGCACUUC,1.43
UUAAUAGAUUGAACUUCAAAAAAAAAUUCUUUCUUAAUUUCUGGAUUAAAAAGUAUGCCUGUGUCUUCUAGACCUUUACCAGAAGAUGAU,-1.47
AAGUCCUGUGCUACACAUCGUAUGUACCGAAUCGGGGUGGGGAAAGGGGUUUGGGGAAAGUAUUAUGUUACGCCGUUCGGAUCUGCACUU,0.636
CACAGACAACACGCACCCACACAGACACAGAGGGAAGGGGUUGGGAUGGGGACAGGGUGCGCAGCAGGGCGGGGUAGGACCCCAGCCCCU,1.84

# Some of these lines once more (block 1):
Oligonucleotide,E-score
CAGGGAAC,-0.0825
GCATGAGA,-0.00563
GCAGTCAC,-0.12
GCCTGTGA,-0.169
CCTAAGGC,-0.294
TAACCTAA,0.185
AAGCCCCT,-0.158
ATAGAGGG,0.118
